Measurements from different studies.
Protocols differ between the studies behind these lines. Values joined by “and” are separate records of one study, mostly repeats; a detail may differ. ± marks the error that the study gave.
IL1RL2: Interleukin-1 receptor-like 2 (IL1RL2, Homo sapiens, UniProt Q9HB29)
UniProt Q9HB29, sequence (whole entry, looked up): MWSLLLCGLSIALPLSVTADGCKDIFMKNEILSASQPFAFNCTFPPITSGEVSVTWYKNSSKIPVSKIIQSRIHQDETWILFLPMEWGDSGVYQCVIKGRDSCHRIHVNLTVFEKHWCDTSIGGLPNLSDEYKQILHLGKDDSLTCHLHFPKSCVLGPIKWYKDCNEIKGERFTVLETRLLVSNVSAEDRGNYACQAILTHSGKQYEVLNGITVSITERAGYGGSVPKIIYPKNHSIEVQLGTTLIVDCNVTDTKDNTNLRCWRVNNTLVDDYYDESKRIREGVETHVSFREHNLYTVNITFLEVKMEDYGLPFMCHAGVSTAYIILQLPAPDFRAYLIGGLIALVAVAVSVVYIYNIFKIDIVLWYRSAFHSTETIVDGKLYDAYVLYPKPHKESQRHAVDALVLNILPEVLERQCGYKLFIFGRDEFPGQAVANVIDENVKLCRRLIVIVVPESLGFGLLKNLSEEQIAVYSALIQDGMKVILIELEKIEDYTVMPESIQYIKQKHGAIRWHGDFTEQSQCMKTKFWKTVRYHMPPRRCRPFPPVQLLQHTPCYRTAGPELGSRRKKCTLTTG
MAPK8: Mitogen-activated protein kinase 8 (MAPK8, Homo sapiens, UniProt P45983)
UniProt Q16539, sequence (whole entry, looked up): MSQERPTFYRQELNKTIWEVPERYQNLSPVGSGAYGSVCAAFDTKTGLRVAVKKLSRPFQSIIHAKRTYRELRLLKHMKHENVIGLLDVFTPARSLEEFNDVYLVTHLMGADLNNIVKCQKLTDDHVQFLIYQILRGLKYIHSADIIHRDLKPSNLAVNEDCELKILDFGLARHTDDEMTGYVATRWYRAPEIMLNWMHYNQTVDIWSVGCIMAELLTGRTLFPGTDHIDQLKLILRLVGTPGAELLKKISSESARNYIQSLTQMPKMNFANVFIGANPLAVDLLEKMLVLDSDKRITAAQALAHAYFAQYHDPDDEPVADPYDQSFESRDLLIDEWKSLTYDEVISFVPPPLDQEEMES
UniProt P45983, sequence (whole entry, looked up): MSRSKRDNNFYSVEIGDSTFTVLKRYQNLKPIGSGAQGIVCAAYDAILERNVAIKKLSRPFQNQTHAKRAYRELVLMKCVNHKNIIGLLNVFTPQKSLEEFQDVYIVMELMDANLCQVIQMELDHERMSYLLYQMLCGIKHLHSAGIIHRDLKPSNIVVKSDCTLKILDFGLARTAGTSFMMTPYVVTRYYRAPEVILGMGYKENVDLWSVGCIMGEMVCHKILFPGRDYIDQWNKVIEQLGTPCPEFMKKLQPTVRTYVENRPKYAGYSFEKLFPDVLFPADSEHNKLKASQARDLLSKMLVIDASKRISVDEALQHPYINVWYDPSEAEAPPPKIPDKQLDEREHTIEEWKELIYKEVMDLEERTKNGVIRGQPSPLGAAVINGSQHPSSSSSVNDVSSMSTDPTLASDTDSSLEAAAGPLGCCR
UniProt Q9UBN7, sequence (whole entry, looked up): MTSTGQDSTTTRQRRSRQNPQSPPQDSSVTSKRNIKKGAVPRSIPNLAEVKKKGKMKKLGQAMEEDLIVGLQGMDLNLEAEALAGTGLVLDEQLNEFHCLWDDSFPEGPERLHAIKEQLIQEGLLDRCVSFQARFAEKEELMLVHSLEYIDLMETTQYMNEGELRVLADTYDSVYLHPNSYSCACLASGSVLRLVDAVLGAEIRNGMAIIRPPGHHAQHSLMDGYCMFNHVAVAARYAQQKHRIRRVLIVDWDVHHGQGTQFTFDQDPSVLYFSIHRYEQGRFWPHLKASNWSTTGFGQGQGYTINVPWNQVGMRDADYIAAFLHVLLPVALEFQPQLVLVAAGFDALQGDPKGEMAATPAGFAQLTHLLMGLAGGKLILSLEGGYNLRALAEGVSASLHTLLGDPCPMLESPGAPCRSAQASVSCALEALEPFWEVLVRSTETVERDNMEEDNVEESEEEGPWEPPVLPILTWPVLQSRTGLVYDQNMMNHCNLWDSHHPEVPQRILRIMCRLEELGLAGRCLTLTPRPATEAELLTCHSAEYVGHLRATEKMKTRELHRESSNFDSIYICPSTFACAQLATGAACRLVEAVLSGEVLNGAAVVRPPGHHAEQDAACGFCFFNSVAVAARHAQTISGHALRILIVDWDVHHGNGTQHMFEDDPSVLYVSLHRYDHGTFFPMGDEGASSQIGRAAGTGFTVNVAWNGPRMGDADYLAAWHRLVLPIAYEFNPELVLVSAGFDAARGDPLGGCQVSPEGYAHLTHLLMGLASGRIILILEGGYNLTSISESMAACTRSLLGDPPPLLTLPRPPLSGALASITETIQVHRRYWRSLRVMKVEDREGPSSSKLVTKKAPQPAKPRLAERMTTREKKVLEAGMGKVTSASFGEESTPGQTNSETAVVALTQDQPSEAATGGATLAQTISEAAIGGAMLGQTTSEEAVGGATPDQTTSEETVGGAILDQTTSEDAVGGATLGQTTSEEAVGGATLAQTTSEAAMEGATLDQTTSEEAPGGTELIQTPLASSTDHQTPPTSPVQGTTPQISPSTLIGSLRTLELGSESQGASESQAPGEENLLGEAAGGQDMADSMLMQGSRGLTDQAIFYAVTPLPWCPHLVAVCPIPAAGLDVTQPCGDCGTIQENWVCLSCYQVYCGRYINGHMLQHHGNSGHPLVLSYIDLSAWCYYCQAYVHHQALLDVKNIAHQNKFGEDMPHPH
UniProt Q76MJ5, sequence (whole entry, looked up): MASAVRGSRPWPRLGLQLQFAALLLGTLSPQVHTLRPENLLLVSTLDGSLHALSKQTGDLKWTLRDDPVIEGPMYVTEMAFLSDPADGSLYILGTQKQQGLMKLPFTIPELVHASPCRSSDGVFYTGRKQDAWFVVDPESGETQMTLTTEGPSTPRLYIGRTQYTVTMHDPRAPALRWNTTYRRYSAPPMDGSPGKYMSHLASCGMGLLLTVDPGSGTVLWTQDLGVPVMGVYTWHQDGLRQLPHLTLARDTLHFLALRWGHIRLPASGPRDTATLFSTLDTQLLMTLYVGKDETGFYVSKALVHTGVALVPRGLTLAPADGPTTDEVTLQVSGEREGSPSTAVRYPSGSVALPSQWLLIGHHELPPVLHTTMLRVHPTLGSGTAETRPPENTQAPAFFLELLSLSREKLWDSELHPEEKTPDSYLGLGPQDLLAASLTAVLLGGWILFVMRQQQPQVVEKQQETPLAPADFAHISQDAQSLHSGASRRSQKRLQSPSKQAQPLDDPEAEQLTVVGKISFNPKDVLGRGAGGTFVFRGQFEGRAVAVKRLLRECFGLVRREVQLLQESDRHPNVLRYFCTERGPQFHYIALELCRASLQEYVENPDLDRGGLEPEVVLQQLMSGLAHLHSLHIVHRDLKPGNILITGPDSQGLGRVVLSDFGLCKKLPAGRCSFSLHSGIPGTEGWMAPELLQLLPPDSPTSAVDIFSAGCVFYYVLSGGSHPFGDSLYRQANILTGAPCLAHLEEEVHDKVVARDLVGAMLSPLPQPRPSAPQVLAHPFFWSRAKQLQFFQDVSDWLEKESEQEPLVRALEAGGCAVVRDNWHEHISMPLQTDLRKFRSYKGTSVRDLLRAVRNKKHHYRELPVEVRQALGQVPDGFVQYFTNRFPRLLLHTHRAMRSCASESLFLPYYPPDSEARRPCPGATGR
UniProt P07237, sequence (whole entry, looked up): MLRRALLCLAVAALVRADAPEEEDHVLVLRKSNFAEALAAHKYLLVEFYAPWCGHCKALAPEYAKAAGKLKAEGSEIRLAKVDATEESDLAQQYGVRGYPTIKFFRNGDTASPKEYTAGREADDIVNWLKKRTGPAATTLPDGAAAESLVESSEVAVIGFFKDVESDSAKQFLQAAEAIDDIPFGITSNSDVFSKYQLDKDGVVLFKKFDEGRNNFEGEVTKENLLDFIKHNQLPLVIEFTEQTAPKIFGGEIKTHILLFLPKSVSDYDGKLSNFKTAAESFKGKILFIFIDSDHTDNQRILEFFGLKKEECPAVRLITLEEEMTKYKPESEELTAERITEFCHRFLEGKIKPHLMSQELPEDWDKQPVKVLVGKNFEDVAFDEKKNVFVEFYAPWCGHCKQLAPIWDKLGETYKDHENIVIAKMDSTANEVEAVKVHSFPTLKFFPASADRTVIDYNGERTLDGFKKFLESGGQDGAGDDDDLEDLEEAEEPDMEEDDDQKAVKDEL
UniProt P47809, sequence (whole entry, looked up): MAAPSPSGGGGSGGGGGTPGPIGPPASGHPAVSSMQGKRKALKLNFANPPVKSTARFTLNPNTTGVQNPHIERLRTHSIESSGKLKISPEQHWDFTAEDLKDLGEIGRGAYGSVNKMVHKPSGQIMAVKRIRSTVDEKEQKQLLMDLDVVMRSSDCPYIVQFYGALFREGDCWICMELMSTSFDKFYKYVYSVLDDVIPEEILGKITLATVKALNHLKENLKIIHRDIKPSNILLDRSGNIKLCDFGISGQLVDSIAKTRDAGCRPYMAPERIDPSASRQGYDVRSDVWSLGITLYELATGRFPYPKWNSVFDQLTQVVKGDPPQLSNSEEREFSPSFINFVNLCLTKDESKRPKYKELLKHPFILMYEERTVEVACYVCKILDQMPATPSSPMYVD
UniProt P03951, sequence (whole entry, looked up): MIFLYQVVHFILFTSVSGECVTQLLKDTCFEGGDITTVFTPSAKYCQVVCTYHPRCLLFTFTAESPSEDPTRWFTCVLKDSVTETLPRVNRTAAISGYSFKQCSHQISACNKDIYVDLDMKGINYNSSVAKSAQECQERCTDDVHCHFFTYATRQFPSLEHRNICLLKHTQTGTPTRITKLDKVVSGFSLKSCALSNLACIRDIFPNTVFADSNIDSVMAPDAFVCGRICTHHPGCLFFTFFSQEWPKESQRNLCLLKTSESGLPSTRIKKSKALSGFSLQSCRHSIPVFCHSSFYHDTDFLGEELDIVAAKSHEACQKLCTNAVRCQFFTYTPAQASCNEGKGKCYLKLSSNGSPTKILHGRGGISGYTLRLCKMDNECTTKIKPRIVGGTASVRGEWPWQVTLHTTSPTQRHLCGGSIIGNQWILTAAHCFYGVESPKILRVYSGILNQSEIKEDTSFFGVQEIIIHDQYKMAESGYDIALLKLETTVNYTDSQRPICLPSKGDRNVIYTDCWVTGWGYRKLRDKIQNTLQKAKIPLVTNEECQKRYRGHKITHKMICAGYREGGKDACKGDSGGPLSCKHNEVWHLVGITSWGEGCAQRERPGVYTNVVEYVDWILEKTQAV

Compound	target or system	test	test system	setting	how to read	quantity	value
N#Cc1cnc2sc(C(=O)O)cc2c1N1CCc2[nH]nc(C(=O)N[C@@H](CC(=O)NCCOCCN3CCOCC3)c3cccc(Br)c3)c2C1	IL1RL2	reporter gene (SEAP), inhibitor, HEK-Blue IL-36R reporter	HEK-Blue IL-36R cells	33.33 µM, 6 h, added: IL36A 0.01 ng/mL	–	remaining activity	27%
O=C=[N][Ru-4]123([n]4c5ccc(O)cc5c5c6c(c7cc(F)c[n+]1c7c54)C(=O)NC6=O)[S+]1CC[S+]2CC[S+]3CC1 (stereo not shown)	Map2k4 (Mus musculus, UniProt P47809)	enzyme activity	–	100 nM, mouse enzyme, added: 10 µM ATP	relative to: untreated	remaining activity	103%
Cn1cnnc1Sc1c2c(c(C#N)c3nc4ccccc4n13)CCCC2	P4HB (Homo sapiens, UniProt P07237)	insulin turbidity	–	100 µM	–	remaining activity	89.6 ± 7.1%
Cc1ccc(C[C@H](NC(=O)CN2CCCc3cc4cc(C(=O)NCCNC(=O)CCCC[C@@H]5SC[C@@H]6NC(=O)N[C@@H]65)c(=O)oc4cc32)C(=O)NC/C=C/S(=O)(=O)c2ccccc2)cc1	Cathepsin K (CTSK, Homo sapiens, UniProt P43235)	enzyme activity, inhibitor, fluorescence	–	5 µM	–	remaining activity	37%
CN(Cc1cc(C2CC2)on1)C(=O)c1cccc(-c2ccc3c(c2)CCO3)c1	Acetyl-CoA synthetase (Cryptococcus neoformans, UniProt J9VFT1)	enzyme activity, inhibitor, coupled pyrophosphate	–	31.3 µM	–	remaining activity	-3.04% and 3.04%
C[C@](C(=O)NC1CCOCC1)(c1cncnc1)N(C(=O)[C@H](F)Cl)c1ccc(OC(F)(F)Cl)cc1	F11 (Homo sapiens, UniProt P03951)	enzyme activity, inhibitor	–	10 µM	–	remaining activity	104%
COC(=O)[C@@]1(C)C=C(C(=O)Nc2cccc(C(=O)Nc3ccc(Nc4nccc(-c5cccnc5)n4)c(C)c3)c2)C(=O)CC1	MAPK14 (Homo sapiens, UniProt Q16539)	enzyme activity, inhibitor	–	1.646 µM, unit not given	relative to: vehicle	remaining activity	0.917 and 1.16 and 0.96
COC(=O)c1ccc2c(c1)nc(NC(=O)c1ccccc1)n2CCCc1ccccc1	HDAC6 (Homo sapiens, UniProt Q9UBN7)	enzyme activity, inhibitor	–	10 µM	–	remaining activity	84%
CC1CC(C)CN(CCOCCSc2ccccc2)C1 (stereo not shown)	Trypanosoma cruzi	reporter mRNA translation, inhibitor, measured: capped polyadenylated Renilla luciferase mRNA	cell-free extract	concentration not given	relative to: control RNA	relative translation	107%
COc1ccccc1-c1ccncc1C(=O)Nc1nnc(OCc2ccc(Cl)cc2)s1	DNA polymerase theta, helicase domain (POLQ, Homo sapiens, UniProt O75417)	ATPase activity, ADP-Glo	–	0.24 µM, added: ATP 100 µM	–	remaining activity	30%
Nc1ncc(-c2cc(-c3cnn(CC(F)(F)F)c3)ncc2F)nc1C(=O)NC1CNCC(F)C1 (stereo not shown)	ERN2 (Homo sapiens, UniProt Q76MJ5)	enzyme activity	–	1 µM	relative to: DMSO control	remaining activity	95.8%
COc1ccc(NC(=O)Nc2ccc3c(c2)C(=O)N(C(C)CO)CC(C)C(CN(C)Cc2ccc4c(c2)OCO4)O3)cc1 (stereo not shown)	CK1 (yeast)	kinase activity	–	0.03 µM	relative to: control	remaining activity	122%
COC(=O)[C@@]1(C(C)C)C=C(C(=O)Nc2cccc(C(=O)Nc3ccc(Nc4nccc(-c5cccnc5)n4)c(C)c3)c2)C(=O)CC1	MAPK8	kinase activity, inhibitor	–	14.81 µM, unit not given, added: 10 mM glutathione	relative to: no inhibitor	remaining activity	0.146
COc1ccc(/C=C/CN2CCCC(CCC(=O)NCc3ccc(F)c(F)c3)C2)cc1 (stereo not shown)	Trypanosoma cruzi	reporter mRNA translation, inhibitor, measured: capped polyadenylated Renilla luciferase mRNA	cell-free extract	concentration not given	relative to: control RNA	relative translation	114%
C=C1C[C@@]2(C(=O)OC)C=C(C(=O)Nc3cccc(C(=O)Nc4ccc(Nc5nccc(-c6cccnc6)n5)c(C)c4)c3)C(=O)[C@@H]1C2	MAPK8	kinase activity, inhibitor	–	2.788e-05 µM, unit not given, added: 10 mM glutathione	relative to: no inhibitor	remaining activity	0.998
CC(C)[C@@H]1NC(=O)[C@H](Cc2ccccc2)NC(=O)CSC[C@@H](C(N)=O)NC(=O)[C@H](CCC(=O)O)NC(=O)[C@H](CO)NC(=O)[C@H](Cc2c[nH]c3cccc(Cl)c23)NC(=O)[C@H](C2CCCCC2)NC(=O)[C@H](C(C)C)NC(=O)[C@H](Cc2ccc(O)cc2)NC(=O)[C@H](CC(=O)O)NC(=O)[C@H](Cc2c[nH]c3ccccc23)NC(=O)[C@H](Cc2ccc(N)nc2)NC(=O)[C@H](Cc2c[nH]c3ccc(Cl)cc23)NC(=O)[C@H](CCC(=O)O)NC1=O	IL1RL2	reporter gene (SEAP), inhibitor, HEK-Blue IL-36R reporter	HEK-Blue IL-36R cells	0.0017 µM, 6 h, added: IL-36β 0.1 ng/mL	–	remaining activity	94.8%
